Results collected from several papers.
Each numbered part is a random draw from the data of one study; scales do not carry over between parts. Several values in a cell are separate wells, animals, samples, runs or records.
UniProt Q8N752, sequence (whole entry, looked up): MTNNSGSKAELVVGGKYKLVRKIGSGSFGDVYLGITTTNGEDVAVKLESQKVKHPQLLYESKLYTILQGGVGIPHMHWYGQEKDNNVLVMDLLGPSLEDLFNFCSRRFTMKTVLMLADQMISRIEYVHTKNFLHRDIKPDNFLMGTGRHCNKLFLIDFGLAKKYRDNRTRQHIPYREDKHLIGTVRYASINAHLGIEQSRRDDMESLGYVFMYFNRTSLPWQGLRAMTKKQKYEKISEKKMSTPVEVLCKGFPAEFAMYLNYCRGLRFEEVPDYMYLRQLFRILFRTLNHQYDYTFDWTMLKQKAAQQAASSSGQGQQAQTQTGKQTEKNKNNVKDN
UniProt P36896, sequence (whole entry, looked up): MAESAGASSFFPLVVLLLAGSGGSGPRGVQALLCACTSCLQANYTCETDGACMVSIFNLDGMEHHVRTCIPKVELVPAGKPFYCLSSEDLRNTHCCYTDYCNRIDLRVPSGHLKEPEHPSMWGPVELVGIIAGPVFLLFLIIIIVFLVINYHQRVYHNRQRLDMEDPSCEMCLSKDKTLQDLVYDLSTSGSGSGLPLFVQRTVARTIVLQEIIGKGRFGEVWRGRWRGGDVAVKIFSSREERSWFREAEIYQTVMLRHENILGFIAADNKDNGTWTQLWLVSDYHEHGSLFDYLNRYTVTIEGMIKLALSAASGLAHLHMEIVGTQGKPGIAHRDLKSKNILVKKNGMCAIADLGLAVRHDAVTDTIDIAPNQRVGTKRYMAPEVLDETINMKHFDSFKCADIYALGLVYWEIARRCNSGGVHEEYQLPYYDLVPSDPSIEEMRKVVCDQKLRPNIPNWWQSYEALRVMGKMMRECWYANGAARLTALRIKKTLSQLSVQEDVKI
UniProt Q15208, sequence (whole entry, looked up): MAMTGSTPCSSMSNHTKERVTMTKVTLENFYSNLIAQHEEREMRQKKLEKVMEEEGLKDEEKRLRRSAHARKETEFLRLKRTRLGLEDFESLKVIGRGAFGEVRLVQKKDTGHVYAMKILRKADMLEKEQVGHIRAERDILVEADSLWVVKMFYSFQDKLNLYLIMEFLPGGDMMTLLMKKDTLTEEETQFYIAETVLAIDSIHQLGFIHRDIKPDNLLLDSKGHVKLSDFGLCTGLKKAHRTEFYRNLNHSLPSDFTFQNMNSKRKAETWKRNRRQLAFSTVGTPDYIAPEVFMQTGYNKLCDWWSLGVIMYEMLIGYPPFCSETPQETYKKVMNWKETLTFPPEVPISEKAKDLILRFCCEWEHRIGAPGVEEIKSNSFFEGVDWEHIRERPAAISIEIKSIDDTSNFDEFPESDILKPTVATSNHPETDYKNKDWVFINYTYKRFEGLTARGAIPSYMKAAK
UniProt O15146, sequence (whole entry, looked up): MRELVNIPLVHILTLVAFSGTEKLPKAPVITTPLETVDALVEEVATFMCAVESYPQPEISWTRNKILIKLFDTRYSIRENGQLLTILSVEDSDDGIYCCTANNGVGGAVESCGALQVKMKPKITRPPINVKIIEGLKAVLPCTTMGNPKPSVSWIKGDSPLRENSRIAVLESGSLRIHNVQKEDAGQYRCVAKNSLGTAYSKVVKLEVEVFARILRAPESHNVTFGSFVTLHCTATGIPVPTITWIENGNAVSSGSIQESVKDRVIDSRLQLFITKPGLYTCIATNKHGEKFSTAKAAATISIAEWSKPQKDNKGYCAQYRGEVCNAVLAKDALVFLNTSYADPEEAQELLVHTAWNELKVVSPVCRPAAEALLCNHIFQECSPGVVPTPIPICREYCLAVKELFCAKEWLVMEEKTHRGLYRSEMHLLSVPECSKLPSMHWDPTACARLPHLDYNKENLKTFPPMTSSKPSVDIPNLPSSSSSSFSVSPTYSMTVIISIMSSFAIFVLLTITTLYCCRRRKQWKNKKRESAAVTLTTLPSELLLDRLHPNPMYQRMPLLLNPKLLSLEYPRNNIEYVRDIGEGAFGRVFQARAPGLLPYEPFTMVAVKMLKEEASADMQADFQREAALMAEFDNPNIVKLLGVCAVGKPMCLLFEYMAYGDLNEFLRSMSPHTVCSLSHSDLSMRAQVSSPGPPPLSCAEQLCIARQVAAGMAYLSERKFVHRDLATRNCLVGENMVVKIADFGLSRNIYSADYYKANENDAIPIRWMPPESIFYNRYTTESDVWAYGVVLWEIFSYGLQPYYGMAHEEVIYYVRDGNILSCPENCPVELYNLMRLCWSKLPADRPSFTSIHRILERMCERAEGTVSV
UniProt Q96Q40, sequence (whole entry, looked up): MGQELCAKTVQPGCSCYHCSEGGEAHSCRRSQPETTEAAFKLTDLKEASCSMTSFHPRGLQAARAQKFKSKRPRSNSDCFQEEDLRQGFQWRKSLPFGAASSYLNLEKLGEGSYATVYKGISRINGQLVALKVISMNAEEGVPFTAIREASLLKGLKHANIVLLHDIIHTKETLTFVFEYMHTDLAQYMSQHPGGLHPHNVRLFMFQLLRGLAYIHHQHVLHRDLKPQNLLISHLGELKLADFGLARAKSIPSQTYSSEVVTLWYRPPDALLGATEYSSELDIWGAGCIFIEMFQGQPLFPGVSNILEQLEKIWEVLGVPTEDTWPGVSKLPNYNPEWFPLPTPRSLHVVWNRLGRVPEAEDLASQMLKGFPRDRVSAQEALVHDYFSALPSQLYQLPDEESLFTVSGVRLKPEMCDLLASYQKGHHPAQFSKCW
UniProt Q99759, sequence (whole entry, looked up): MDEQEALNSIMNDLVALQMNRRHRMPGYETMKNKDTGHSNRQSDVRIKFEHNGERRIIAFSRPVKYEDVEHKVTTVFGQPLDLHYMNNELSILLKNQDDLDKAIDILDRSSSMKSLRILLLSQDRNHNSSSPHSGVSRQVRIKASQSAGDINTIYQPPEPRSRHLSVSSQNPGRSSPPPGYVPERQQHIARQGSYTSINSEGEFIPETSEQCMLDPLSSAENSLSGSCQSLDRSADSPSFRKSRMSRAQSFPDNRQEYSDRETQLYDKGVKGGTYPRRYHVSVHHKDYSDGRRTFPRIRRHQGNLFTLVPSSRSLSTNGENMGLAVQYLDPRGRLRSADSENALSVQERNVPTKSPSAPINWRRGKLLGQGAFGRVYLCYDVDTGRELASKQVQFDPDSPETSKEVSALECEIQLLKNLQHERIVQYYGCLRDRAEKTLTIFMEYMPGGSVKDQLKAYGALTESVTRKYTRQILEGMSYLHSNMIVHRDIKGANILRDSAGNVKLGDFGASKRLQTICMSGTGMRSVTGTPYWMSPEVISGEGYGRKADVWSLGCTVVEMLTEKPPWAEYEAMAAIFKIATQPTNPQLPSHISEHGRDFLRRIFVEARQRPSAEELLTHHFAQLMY
UniProt P07333, sequence (whole entry, looked up): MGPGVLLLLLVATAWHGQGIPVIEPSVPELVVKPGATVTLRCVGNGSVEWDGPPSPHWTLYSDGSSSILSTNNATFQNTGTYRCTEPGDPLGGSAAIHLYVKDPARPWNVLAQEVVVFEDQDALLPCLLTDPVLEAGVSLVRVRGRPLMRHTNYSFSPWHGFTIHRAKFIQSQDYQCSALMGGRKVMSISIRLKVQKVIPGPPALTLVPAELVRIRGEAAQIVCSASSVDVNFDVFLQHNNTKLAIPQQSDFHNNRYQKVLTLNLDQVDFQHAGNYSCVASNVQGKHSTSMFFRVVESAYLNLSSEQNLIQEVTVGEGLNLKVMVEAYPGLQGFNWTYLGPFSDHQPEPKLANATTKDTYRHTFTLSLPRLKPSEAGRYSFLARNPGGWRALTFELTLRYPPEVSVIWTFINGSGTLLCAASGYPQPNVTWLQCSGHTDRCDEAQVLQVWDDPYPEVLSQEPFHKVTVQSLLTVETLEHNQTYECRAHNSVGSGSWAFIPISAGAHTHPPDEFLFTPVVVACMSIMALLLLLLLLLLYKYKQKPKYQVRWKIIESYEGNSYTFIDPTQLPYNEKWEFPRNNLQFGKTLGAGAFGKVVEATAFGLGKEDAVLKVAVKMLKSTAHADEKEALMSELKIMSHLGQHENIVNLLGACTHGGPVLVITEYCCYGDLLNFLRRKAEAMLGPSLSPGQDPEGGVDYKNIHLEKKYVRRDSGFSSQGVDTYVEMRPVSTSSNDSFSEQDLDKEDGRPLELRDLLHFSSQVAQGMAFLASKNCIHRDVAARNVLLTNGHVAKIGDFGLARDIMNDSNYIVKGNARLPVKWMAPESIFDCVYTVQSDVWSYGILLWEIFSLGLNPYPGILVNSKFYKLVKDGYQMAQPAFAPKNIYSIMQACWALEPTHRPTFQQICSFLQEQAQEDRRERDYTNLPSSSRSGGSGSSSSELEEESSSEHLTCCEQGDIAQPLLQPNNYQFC
UniProt P57078, sequence (whole entry, looked up): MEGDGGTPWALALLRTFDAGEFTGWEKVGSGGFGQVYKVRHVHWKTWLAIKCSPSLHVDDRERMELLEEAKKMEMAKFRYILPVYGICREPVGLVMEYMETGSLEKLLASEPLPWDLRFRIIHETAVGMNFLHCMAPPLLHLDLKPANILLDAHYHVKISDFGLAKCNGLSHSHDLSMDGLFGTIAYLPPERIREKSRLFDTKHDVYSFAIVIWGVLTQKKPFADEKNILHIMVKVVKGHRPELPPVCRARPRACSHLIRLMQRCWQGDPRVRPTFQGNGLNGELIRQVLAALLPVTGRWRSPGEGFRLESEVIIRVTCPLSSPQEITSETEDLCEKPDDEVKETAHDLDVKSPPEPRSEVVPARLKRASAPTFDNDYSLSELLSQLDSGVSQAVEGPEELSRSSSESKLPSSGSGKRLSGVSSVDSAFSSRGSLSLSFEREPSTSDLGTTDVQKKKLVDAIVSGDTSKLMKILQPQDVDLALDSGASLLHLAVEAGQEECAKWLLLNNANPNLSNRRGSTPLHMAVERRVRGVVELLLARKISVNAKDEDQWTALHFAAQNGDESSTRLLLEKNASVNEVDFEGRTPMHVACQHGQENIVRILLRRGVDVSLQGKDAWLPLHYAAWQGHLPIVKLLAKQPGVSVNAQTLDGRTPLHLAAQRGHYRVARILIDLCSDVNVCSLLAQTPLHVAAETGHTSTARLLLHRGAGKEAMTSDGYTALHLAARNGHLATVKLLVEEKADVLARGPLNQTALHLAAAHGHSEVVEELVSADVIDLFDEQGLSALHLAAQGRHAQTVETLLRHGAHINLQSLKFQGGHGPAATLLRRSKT

Series 1
Structure (SMILES): CC(C)C[C@@H]1NC(=O)[C@@H](N(C)C(=O)[C@H](CC2CCC2)NC(=O)[C@@H]2C[C@@H](F)CN2C(=O)C2(C(F)(F)F)CC(F)(F)C2)CCCCNC(=O)C2(CC2)NC(=O)[C@H](Cc2cc(Cl)ccc2Cl)N(C)C1=O
Technique: flow cytometry
Quantity: cleaved PARP positive cells
cell line = HCC4006; tested at = 200 nM; time = 72 h; value = 3.03% and 1.36% and 1.03%
cell line = human CD34+ HSPC; tested at = 3000 nM; time = 24 h; value = 3.18% and 3.05%
cell line = human CD34+ HSPC; tested at = 10000 nM; time = 24 h; value = 2.87% and 2.26%
cell line = NCI-H1299; tested at = 20 nM; time = 72 h; value = 0.22% and 0.54% and 0.34%
cell line = NCI-H446; tested at = 200 nM; time = 3 days; notes = without Mps1 inhibitor; value = 28.6% and 23.4% and 26.8%
cell line = NCI-H446; tested at = 200 nM; time = 72 h; value = 13.9% and 10.7% and 14.9%
cell line = HCC4006; tested at = 2000 nM; time = 72 h; value = 2.67% and 2.27% and 5.83%
cell line = NCI-H446; tested at = 2 nM; time = 3 days; notes = without Mps1 inhibitor; value = 10.7% and 12.5% and 10.3%
cell line = NCI-H446; tested at = 6 nM; time = 3 days; together with = Mps1 inhibitor 3 nM; value = 7.24% and 8.07% and 7.49%
cell line = NCI-H1299; tested at = 2000 nM; time = 72 h; value = 2.8% and 4.53% and 4.2%

Series 2
Target: Diamine acetyltransferase 1 (Homo sapiens, UniProt P21673)
Action: inhibitor
Tested at: 10 µM
Relative to: control
Quantity: remaining activity
Construct (P21673 1-171): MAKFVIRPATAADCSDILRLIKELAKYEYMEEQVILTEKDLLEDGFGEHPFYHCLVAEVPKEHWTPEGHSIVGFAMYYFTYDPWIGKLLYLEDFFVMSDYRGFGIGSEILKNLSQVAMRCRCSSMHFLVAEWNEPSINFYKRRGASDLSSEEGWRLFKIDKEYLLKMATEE
Structure (SMILES) = CC(C)=CCC/C(C)=C/CC/C(C)=C/CC/C=C(\C)CC/C=C(\C)CCC=C(C)C; value = 101%
Structure (SMILES) = O=c1oc2cc(O)ccc2c2oc3cc(O)ccc3c12; value = 101%
Structure (SMILES) = CCCCCCCCCCCCCC(=O)OCC(O)CO (centres unmarked); value = 102%
Structure (SMILES) = COc1ccc(-c2cc(=O)c3c(O)cc(O)c(-c4cc(-c5cc(=O)c6c(O)cc(OC)cc6o5)ccc4OC)c3o2)cc1; value = 97%
Structure (SMILES) = C=C(C)[C@@H]1CC[C@]2(C=O)CC[C@]3(C)[C@H](CC[C@@H]4[C@@]5(C)CC[C@H](O)C(C)(C)[C@@H]5CC[C@]43C)[C@@H]12; value = 98.4%
Structure (SMILES) = CCC/C=C1\OC(=O)C2=C1CC[C@H](O)[C@H]2O; value = 81.2%
Structure (SMILES) = OCC1=C[C@@H](O)[C@@H]2C=CO[C@@H](O[C@@H]3O[C@H](CO)[C@@H](O)[C@H](O)[C@H]3O)[C@H]12; value = 94.7%
Structure (SMILES) = O=c1ccc2ccc(O)cc2o1; value = 105%
Structure (SMILES) = Cc1cc(O)cc(O[C@@H]2O[C@H](CO)[C@@H](O)[C@H](O)[C@H]2O)c1; value = 104%
Structure (SMILES) = COc1cc(CCC(C)=O)ccc1O; value = 90.9%
Structure (SMILES) = Oc1cc(O)c2c(c1)O[C@@H](c1cc(O)c(O)c(O)c1)[C@H](O)C2; value = 86.9%
Structure (SMILES) = O[C@H]1[C@H](O)[C@@H](O)[C@H](O)[C@@H](O)[C@H]1O; value = 88.3%

Series 3
Structure (SMILES): CCCOc1ccc([C@H]2[C@H](C(=O)O)[C@@H](c3ccc4c(c3)OCO4)CN2CC(=O)Nc2c(CC)cccc2CC)cc1
Observed: cell-free assay
Technique: competition with immobilised ligand
Tested at: 1 µM
Quantity: remaining binding
target = MAPK7 (Homo sapiens, UniProt Q13164); value = 97%
target = MAP3K3 (Homo sapiens, UniProt Q99759); value = 74%
target = STK38 (Homo sapiens, UniProt Q15208); value = 77%
target = PRKCQ (Homo sapiens, UniProt Q04759); value = 81%
target = CSNK2A1 (Homo sapiens, UniProt P68400); value = 69%
target = LATS1 (Homo sapiens, UniProt O95835); value = 77%
target = CDK15 (Homo sapiens, UniProt Q96Q40); value = 94%
target = CSNK1A1L (Homo sapiens, UniProt Q8N752); value = 92%
target = RIPK4 (Homo sapiens, UniProt P57078); value = 69%
target = ACVR1B (Homo sapiens, UniProt P36896); value = 99%
target = MUSK (Homo sapiens, UniProt O15146); value = 82%
target = CSF1R (Homo sapiens, UniProt P07333); value = 90%
target = EGFR (Homo sapiens, UniProt P00533, del747-750/T751S); value = 100%

Series 4
Cell line: HaCaT
Tested at: 100 µM
Time: 60 h
Quantity: viability
SMILES = CC[C@H]1OC(=O)[C@H](C)[C@@H](O[C@H]2C[C@@](C)(OC)[C@@H](O)[C@H](C)O2)[C@H](C)[C@@H](O[C@@H]2O[C@H](C)C[C@H](N(C)C)[C@H]2O)[C@](C)(OC)C[C@@H](C)C(=O)[C@H](C)[C@@H](O)[C@]1(C)O; value = 83.3%
SMILES = O=c1ccn([C@@H]2O[C@H](CO)[C@@H](O)[C@H]2O)c(=O)[nH]1; value = 150%
SMILES = N[C@H](Cc1ccccc1)C(=O)O; value = 134%
SMILES = Cc1nc2n(c(=O)c1CCN1CCC(c3noc4cc(F)ccc34)CC1)CCCC2O (centres unmarked); value = 131%
SMILES = COC(=O)[C@@H]1CC2=CC(=O)CC[C@]2(C)[C@@]23O[C@@H]2C[C@@]2(C)[C@@H](CC[C@@]24CCC(=O)O4)[C@H]13; value = 127%
SMILES = C[C@@H]1C[C@H]2[C@@H]3CCC4=CC(=O)C=C[C@]4(C)[C@@]3(Cl)[C@@H](O)C[C@]2(C)[C@@]1(OC(=O)c1ccco1)C(=O)CCl; value = 16.5%

For quick reference, copied from above (series 1):
cell line = human CD34+ HSPC; tested at = 10000 nM; time = 24 h; value = 2.87% and 2.26%
cell line = HCC4006; tested at = 200 nM; time = 72 h; value = 3.03% and 1.36% and 1.03%
cell line = NCI-H446; tested at = 6 nM; time = 3 days; together with = Mps1 inhibitor 3 nM; value = 7.24% and 8.07% and 7.49%
cell line = NCI-H1299; tested at = 20 nM; time = 72 h; value = 0.22% and 0.54% and 0.34%
cell line = NCI-H446; tested at = 200 nM; time = 3 days; notes = without Mps1 inhibitor; value = 28.6% and 23.4% and 26.8%
